Published values collected from several papers.
Each numbered part is a random draw from the data of one study; scales do not carry over between parts.

Study 1 — method: RNA Bind-n-Seq; molecule type: RNA; sample: in vitro; concentration: 365 nM; reference: no-protein control; direction: higher = stronger binding; endpoint: RBNS enrichment (R)
Target: RNA binding protein fox-1 homolog 2, RRM domain, GST-SBP tag (RBFOX2, Homo sapiens, UniProt O43251-10, residues 100-194)
Notes: natural RNA segment, single round, ends assumed
Shared flanks, not repeated: GGGAGUUCUACAGUCCGACGAUC … UGGAAUUCUCGGGUGCCAA
Target sequence (chain): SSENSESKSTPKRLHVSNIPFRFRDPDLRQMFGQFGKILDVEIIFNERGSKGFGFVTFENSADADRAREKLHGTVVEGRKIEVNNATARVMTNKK
GGGACUGAGACCCAGGCCUGGCAGGACCGUGCCUACAGAUACUGCAAACGUUCCUACAGCCUAGAGGUGCGUAUACACACCCAAGUACACGCAGCCAGGCAUUCAGGGGU: 0.356
CAGGUGAGCCCUGAAAACACAAAAGGACAGUUCUGUGUUGAAACACCCCAUCCCCUCACGUUCUCACCCCAGGCCCAGAAGUAGGUUGCAACUGCCUUUGGAAGAUUUUG: 0.672
AGACCUUGUUUUGAGGAUUUUACAAGACCUUUGUAGCGAUUAGAUUUUUUUUCUACAUUGAAAAUAGAAACUGCUUCCUUUCUUCUUUCCAGUCAGCUAUUGGUCUUUCC: 0.403
UUUCAAGGUCAUCUUAAAAAAGAUGUGCGUUGUAUAUUUUAACUACAUUCUCUACACUCUAACAUUAACAUAUCUAUUCAAAUUUGUCUAGUUGCCAAUUGUCUUCAGAG: 0.451
UGUAAAGACAAAAAACUAUAUGUAUGGUUUUGUGGAUUAUGUGUGUUUUGCUAAAGGAAAAAACCAUCCAGGUCACGGGGCACCAAAUUUGAGACAAAUAGUCGGAUUAG: 0.926
AAUGUUCCAAGACACUUGAGAGAAAAGACCUAGGAAAGAGAAGGUUCCUGGUGAGCCUGUGGUCUAGUCCCCCUAGUCCAGCUGUUGAAGACCAACUGCUUCCUGAUGAU: 0.339
UGGGUACAUACUGGAGACAGCCAAGAGCUGAGUAUAUAAAGGAGAGGGAAUGUGCAGGAACAGAGGCGUCUUCCUGGGUUUGGCUCCCCGUUCCUCACUUUUCCCUUUUC: 0.352
UUAAUAGACAAAGUAAUAAAUCAUGUUUAUCUAUUGAUUUAAACUUCAUCAGUUUUGCAUCCUACUGAGAAAUGUUAGUGAUUUUGAUACUUAAAUCCUUAAAAGAUUGC: 4.06
CUUUAUAAGGUCAGUGUGCAUUUGUUCUAGUUAUAAUGCUUUUAAAUUGUACUUUUUCUUCCCAUGUGAGCAUUGUGGGAAGGAAUGGACACAGAGCAGCGUAGACAUUU: 0.417
UCACCUCCGAACUGUUCAAGUGUCCCCAGACCCUUCUUGCCUGCUGGGCUCCCCCCAGUGGGAUGGGACAGGGAGGCCACACGCACUGGUGCCAAAACCAGGCCUCUGCU: 0.304
ACCUCCAUGGAAGCGGGGGCAUGCAAGGGCGAGACAGUUUUUCCUCAUCCCUUGCCAAGCUUCUCUUAGGAUUGGUUUGCAGGGUAUAGAAUCCCAUCACGCGUGGGAAA: 1.95
GAGAGGGACAUGAAUCGUGCAUGUUGUUGUUUUUGACAGUGUGGCUGUCAGUUUUGAAUUCCUCCAUCUGAACUGCACUGAAGAACUAGACUAAAGCACCGGGCGGUCCA: 20.2

Study 2 — method: protein binding microarray; molecule type: double-stranded DNA, one strand shown; sample: in vitro; concentration: not given; reference: not given; direction: higher = stronger binding; endpoint: E-score
Target: Histone acetyltransferase KAT6A, winged helix 2, GST fusion (KAT6A, Homo sapiens, UniProt Q92794, residues 85-181)
Notes: 8-mer, flanks averaged, mean of 2 arrays, mostly near background
Residues (chain): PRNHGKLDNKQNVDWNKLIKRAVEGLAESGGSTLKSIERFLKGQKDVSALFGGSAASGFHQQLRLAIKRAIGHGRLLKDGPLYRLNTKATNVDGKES
TTGCGAAA: 0.0832
AAACAGAC: 0.0765
ATCTATTG: -0.0308
GCTCAAGA: -0.0773
CTTTCGCA: 0.0358
ATGGGGCC: -0.133
ATAAGGAA: -0.101
TGACGCCA: -0.0807
GAGAGACC: -0.086
TACTGAGA: -0.186
TCCCTCAA: 0.0573
CTTCAAGA: 0.0154
AGTCCGGG: 0.148
TCCTTCCA: -0.146
CAAAATAC: 0.0434
AATTTTCG: -0.084
TGGCGCCA: 0.0909
ATCTGTCC: 0.0548
AACCTAGC: -0.00471
AAGTACCA: -0.0392
AGTATCAG: -0.0799
GCGAAGGA: -0.0303
CCTAATAC: -0.137
GGGTAGGA: -0.0127
ACAGAGGA: 0.0255

Study 3 — method: RNA Bind-n-Seq; molecule type: RNA; sample: in vitro; concentration: 200 nM; notes: whole 134-nt RNA, ends assumed; added: 150 mM KCl; reference: input library; direction: higher = stronger binding; endpoint: log2 enrichment
Target: Ras GTPase-activating protein-binding protein 1, full length (G3BP1, Homo sapiens, UniProt Q13283)
UniProt Q13283, sequence (whole entry, looked up): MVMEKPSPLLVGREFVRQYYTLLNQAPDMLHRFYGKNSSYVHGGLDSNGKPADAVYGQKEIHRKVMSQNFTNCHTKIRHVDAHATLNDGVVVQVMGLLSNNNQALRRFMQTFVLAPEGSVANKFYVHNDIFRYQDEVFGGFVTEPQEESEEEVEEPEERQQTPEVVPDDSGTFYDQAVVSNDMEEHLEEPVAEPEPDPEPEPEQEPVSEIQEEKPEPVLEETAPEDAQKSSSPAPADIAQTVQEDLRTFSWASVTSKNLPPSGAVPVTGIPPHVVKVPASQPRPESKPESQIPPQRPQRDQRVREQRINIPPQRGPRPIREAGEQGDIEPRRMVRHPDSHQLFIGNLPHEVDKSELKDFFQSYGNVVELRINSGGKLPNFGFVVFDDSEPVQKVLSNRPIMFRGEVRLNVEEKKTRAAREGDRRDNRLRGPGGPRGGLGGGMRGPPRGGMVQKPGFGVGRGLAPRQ
Shared flanks, not repeated: GGGAGUUCUACAGUCCGACGAUC … UGGAAUUCUCGGGUGUCAAGG
CAAGUCCUGUGCUACACAUCGUAUGUACCGAAUCGGAAAAAGGAAAGGAAAAAGGAAAGUAUUAUGUUACGCCGUUCGGAUCUGCACUUC: -0.941
CCUGUGCUACACAUCGUAUGUACCGAAUCAAACCCCCCCAAACCCCCCCAAAUUUUUAAAAAAGUAUUAUGUUACGCCGUUCGGAUCUGC: 0.997
AGUCCUGUGCUACACAUCGUAUGUACCGAAUCGGUUUUGGGGUUUUGGGGUUUUGGGAAAGUAUUAUGUUACGCCGUUCGGAUCUGCACU: -0.499
UCAAGUCCUGUGCUACACAUCGUAUGUACCGAAUCGGUUUUUGGAAAGGAAAGGAAAGUAUUAUGUUACGCCGUUCGGAUCUGCACUUCC: -0.971
GUCCUGUGCUACACAUCGUAUGUACCGAAUCGGGGAAAAAGGAAAAAGGGAAAAAGGGAAAGUAUUAUGUUACGCCGUUCGGAUCUGCAC: -0.566
AAGUCCUGUGCUACACAUCGUAUGUACCGAAUCGGGUUUGGGUGGGUUUUUUUGGGAAAGUAUUAUGUUACGCCGUUCGGAUCUGCACUU: 0.31
GUCCUGUGCUACACAUCGUAUGUACCGAAUCGGGGUUUUUGGGUUUUUGGGGUUUUUGGAAAGUAUUAUGUUACGCCGUUCGGAUCUGCA: -0.266
UAACUUUAGAGGAGGAUCUGAUGGAUAUGGCAGUGGACGUGGAUUUGGGGAUGGAUAUAAUGGGUAUGGAGGAGGACCUGGAGGUGGCAA: 0.445
ACCAUGCAGGUGGGCAUCUUUGGGAAGUGGGGCACGGGGGGGAUAGGGAGGGGGGUAACACUUUGGGAACAGGUGGUCCCAGGUCGUUUC: 0.971
CUGUGCUACACAUCGUAUGUACCGAAUCGGGCCCCCCCGGGGCCCCCCCGGCCCCCCCGGGAAAGUAUUAUGUUACGCCGUUCGGAUCUG: -0.945
CAAGUCCUGUGCUACACAUCGUAUGUACCGAAUCGGGAAAGGAAAGGGAAAGGGGAAAGUAUUAUGUUACGCCGUUCGGAUCUGCACUUC: 0.032
UCAAGUCCUGUGCUACACAUCGUAUGUACCGAAUCGGGCCGGCCGGGGCCGGGGAAAGUAUUAUGUUACGCCGUUCGGAUCUGCACUUCC: -0.461
UGGGAGGUGGAUUUUGUUUAUUUUAUUAGCUCAUUUCCAGGGGUGGGAAUUUUUUUUUAAUAUGUGUCAUGAAUAAAGUUGUUUUUGAAA: 0.2
ACCAUGCAGGUGGGCAUCUUUGGGAAGUGGGGCAAGGGGGGGAUAGGGAGGGGGAUAACACUUUGGGAACAGGUGGUCCCAGGUCGUUUC: 1.62

Study 4 — method: protein-binding microarray; molecule type: double-stranded DNA, one strand shown; sample: in vitro; concentration: not given; direction: higher = stronger binding; endpoint: E-score
Target: Max dimerization protein 1, bHLH-zipper, MAX partner unstated (MXD1, Homo sapiens, UniProt Q05195, residues 56-136)
Notes: k-mer, scored over probes, only values ≥0.25
Construct (chain): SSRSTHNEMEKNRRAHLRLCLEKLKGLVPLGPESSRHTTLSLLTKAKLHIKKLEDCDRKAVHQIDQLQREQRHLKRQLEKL
CGTGCGGA: 0.288
CACCTGGC: 0.274
ACGTGGAG: 0.415
CGCACGCA: 0.324
ACGCACGT: 0.431
ATTACACG: 0.314
AGCGCACG: 0.324
CCCACGGG: 0.31
CAGTCACG: 0.402
ACGCACAT: 0.357
CATGCTCC: 0.373
CACGAGAG: 0.296
CACGTTGA: 0.428
CCCGTGCA: 0.269
AGCGTGAT: 0.346
CGTGGATA: 0.272
GGAGACAC: 0.303
AGGCATGC: 0.367
CATGGCCC: 0.321
AAACATGT: 0.381
CGCCACCC: 0.311
CCCACCCC: 0.393
CACATGTC: 0.453
CCACACGA: 0.296
AAACGTGA: 0.282

Study 5 — method: universal PBM; molecule type: double-stranded DNA, one strand shown; sample: in vitro; concentration: 600 nM; direction: higher = stronger binding; endpoint: E-score
Target: Sal-like protein 4, full length isoform A (SALL4, Homo sapiens, UniProt Q9UJQ4, residues 1-1053)
UniProt Q9UJQ4, sequence (whole entry, looked up): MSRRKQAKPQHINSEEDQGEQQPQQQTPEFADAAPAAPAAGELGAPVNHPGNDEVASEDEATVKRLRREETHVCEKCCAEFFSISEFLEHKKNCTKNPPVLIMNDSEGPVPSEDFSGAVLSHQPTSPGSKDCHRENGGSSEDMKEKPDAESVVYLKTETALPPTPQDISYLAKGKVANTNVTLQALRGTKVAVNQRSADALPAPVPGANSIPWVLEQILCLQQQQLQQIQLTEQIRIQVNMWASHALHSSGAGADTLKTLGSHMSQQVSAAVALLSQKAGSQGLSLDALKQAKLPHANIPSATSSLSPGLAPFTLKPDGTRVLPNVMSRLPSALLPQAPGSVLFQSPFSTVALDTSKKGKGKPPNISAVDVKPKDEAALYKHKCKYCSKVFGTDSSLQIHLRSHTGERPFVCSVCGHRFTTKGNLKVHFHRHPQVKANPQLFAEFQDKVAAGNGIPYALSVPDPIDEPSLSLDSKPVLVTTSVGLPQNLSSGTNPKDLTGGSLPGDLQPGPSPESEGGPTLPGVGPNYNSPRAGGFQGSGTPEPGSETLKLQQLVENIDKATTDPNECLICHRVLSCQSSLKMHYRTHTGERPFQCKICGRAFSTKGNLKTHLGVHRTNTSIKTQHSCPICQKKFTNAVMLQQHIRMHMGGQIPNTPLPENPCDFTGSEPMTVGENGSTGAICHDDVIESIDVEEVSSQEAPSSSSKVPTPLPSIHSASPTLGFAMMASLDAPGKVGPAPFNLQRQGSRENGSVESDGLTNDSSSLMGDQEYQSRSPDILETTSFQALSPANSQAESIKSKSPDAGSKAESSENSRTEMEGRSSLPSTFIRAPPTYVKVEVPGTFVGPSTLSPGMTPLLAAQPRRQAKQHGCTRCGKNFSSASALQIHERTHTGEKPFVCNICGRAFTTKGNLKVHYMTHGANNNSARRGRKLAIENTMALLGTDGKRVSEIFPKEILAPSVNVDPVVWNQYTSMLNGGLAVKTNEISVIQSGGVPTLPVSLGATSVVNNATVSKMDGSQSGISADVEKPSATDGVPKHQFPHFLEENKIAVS
Notes: 8-mer, flanks averaged, mean of replicates
TAATGAGA: 0.249
AAAGAAGG: 0.0205
GGTCGAAC: -0.208
GTTTTTGA: 0.253
ATTCCTAC: 0.11
GCATAGTA: 0.184
CAGGACCC: -0.393
CCGCCGTA: -0.26
CCAGTTGA: -0.192
CCAATCGC: -0.126
GCCTGCCC: -0.367
CTAACGAC: -0.0297
CGGTGGTC: -0.22
AATAAATC: 0.285
CCGTATCC: -0.197
CATCCACG: -0.0421
TCAGATCA: -0.0123
ACCACTCA: -0.0524
AGCCGAAA: 0.0432
GCACCCAA: -0.279
CGCCATGC: -0.191
GATGCGAA: 0.102
CAAGTTGG: 0.00734
ACCCAATG: -0.115
GTACAAAC: 0.0929

Repeated from above (study 5):
CAGGACCC: -0.393
CCGCCGTA: -0.26
CCAGTTGA: -0.192
CCAATCGC: -0.126
GCCTGCCC: -0.367
CTAACGAC: -0.0297
CGGTGGTC: -0.22
AATAAATC: 0.285
CCGTATCC: -0.197
CATCCACG: -0.0421
TCAGATCA: -0.0123
ACCACTCA: -0.0524
